Results of several laboratories.
Each line is one published result; not all experiments were run side by side. Numbers after ± are the reported error. Non-standard residues stand in square brackets, D forms with d. Primed or numbered codes have the meaning given here. Ends that are not written are not given here. No end group written: not given here.
B1: PDHA1/PDHB mature heterotetramer (Homo sapiens); chain 1 FANDATFEIKKCDLHRLEEGPPVTTVLTREDGLKYYRMMQTVRRMELKADQLYKQKIIRGFCHLCDGQEACCVGLEAGINPTDHLITAYRAHGFTFTRGLSVREILAELTGRKGGCAKGKGGSMHMYAKNFYGGNGIVGAQVPLGAGIALACKYNGKDEVCLTLYGDGAANQGQIFEAYNMAALWKLPCIFICENNRYGMGTSVERAAASTDYYKRGDFIPGLRVDGMDILCVREATRFAAAYCRSGKGPILMELQTYRYHGHSMSDPGVSYRTREEIQEVRSKSDPIMLLKDRMVNSNLASVEELKEIDVEVRKEIEDAAQFATADPEPPLEELGYHIYSSDPPFEVRGANQWIKFKSVS; chain 2 LQVTVRDAINQGMDEELERDEKVFLLGEEVAQYDGAYKVSRGLWKKYGDKRIIDTPISEMGFAGIAVGAAMAGLRPICEFMTFNFSMQAIDQVINSAAKTYYMSGGLQPVPIVFRGPNGASAGVAAQHSQCFAAWYGHCPGLKVVSPWNSEDAKGLIKSAIRDNNPVVVLENELMYGVPFEFPPEAQSKDFLIPIGKAKIERQGTHITVVSHSRPVGHCLEAAAVLSKEGVECEVINMRTIRPMDMETIEASVMKTNHLVTVEGGWPQFGVGAEICARIMEGPAFNFLDAPAVRVTGADVPMPYAKILEDNSIPQVKDIIFAIKKTLNI
B2: TIF4631 572-853 K590R (Saccharomyces cerevisiae, UniProt P39935); sequence looked up; chain LVPSANRWVPKFKSKKTERKLAPDGKTELLDKDEVERKMKSLLNKLTLEMFDAISSEILAIANISVWETNGETLKAVIEQIFLKACDEPHWSSMYAQLCGKVVKELNPDITDETNEGKTGPKLVLHYLVARCHAEFDKGWTDKLPTNEDGTPLEPEMMSEEYYAAASAKRRGLGLVRFIGFLYRLNLLTGKMMFECFRRLMKDLTDSPSEETLESVVELLNTVGEQFETDSFRTGQATLEGSQLLDSLFGILDNIIQTAKISSRIKFKLIDIKELRHDKNWN
B3: CCL21 mature, 1-111 (Homo sapiens, UniProt O00585); sequence looked up; chain SDGGAQDCCLKYSQRKIPAKVVRSYRKQEPSLGCSIPAILFLPRKRSQAELCADPKELWVQQLMQHLDKTPSPQKPAQGCRKDRGASKTGKKGKGSKGCKRTERSQTPKGP
B4: RAB8A GTP-bound Q67L (UniProt P61006); sequence looked up; chain MAKTYDYLFKLLLIGDSGVGKTCVLFRFSEDAFNSTFISTIGIDFKIRTIELDGKRIKLQIWDTAGLERFRTITTAYYRGAMGIMLVYDITNEKSFDNIRNWIRNIEEHASADVEKMILGNKCDVNDKRQVSKERGEKLALDYGIKFMETSAKANINVENAFFTLARDIKAKMDKKLEGNSPQGSNQGVKITPDQQKRSSFFRCVLL
B5: FGF14 (Homo sapiens, UniProt Q92915-2); chain MVKPVPLFRRTDFKLLLCNHKDLFFLRVSKLLDCFSPKSMWFLWNIFSKGTHMLQCLCGKSLKKNKNPTDPQLKGIVTRLYCRQGYYLQMHPDGALDGTKDDSTNSTLFNLIPVGLRVVAIQGVKTGLYIAMNGEGYLYPSELFTPECKFKESVFENYYVIYSSMLYRQQESGRAWFLGLNKEGQAMKGNRVKKTKPAAHFLPKPLEVAMYREPSLHDVGETVPKPGVTPSKSTSASAIMNGGKPVNKSKTT
B6: DKK1 183-266 (Homo sapiens, UniProt O94907); sequence looked up; chain GQEGSVCLRSSDCASGLCCARHFWSKICKPVLKEGQVCTKHRRKGSHGLEIFQRCYCGEGLSCRIQKDHHQASNSSRLHTCQRH
B7: NTF3 mature (Homo sapiens, UniProt P20783); chain YAEHKSHRGEYSVCDSESLWVTDKSSAIDIRGHQVTVLGEIKTGNSPVKQYFYETRCKEARPVKNGCRGIDDKHWNSQCKTSQTYVRALTSENNKLVGWRWIRIDTSCVCALSRKIGRT
Chain of UniProt P15873 (whole entry, looked up): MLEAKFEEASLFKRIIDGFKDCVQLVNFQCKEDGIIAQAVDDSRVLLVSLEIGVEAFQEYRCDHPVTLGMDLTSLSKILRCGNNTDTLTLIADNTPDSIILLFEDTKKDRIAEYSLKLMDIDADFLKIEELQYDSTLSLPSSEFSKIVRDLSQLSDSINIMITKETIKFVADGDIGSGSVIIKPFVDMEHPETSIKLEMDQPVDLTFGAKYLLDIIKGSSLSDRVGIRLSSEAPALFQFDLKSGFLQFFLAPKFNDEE
Chain of UniProt P09038 (whole entry, looked up): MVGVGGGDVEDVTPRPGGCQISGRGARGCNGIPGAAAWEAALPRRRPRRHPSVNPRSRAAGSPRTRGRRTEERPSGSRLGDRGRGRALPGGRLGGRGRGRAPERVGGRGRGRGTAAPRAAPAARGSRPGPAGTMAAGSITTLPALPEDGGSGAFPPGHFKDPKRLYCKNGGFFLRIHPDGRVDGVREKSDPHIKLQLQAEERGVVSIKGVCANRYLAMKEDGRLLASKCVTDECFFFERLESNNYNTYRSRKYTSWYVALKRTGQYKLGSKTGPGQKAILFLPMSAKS
Chain of UniProt P03956 (whole entry, looked up): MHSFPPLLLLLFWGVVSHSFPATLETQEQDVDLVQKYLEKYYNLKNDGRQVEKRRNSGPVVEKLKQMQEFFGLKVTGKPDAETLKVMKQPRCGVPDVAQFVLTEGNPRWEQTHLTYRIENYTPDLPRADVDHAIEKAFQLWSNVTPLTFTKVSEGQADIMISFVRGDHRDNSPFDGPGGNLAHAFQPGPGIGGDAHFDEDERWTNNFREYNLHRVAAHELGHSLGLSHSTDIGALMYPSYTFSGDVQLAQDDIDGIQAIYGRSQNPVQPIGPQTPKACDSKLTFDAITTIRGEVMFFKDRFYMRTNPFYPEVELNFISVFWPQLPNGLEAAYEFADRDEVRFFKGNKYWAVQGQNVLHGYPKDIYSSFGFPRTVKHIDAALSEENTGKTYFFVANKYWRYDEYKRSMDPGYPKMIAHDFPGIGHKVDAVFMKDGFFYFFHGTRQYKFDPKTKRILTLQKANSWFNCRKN
Chain of UniProt P10081 (whole entry, unmodified, looked up): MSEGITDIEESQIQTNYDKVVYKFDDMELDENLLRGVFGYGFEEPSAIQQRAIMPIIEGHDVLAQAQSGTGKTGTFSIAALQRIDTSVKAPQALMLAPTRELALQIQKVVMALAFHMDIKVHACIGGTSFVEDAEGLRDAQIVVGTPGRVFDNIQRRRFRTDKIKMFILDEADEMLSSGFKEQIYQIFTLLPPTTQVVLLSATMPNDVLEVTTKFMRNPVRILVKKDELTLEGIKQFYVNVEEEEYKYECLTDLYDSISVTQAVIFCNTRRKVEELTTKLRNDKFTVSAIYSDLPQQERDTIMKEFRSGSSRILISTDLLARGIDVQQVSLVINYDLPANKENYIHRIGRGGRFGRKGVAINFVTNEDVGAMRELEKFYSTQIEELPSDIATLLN
Chain of UniProt P06400 (whole entry, unmodified, looked up): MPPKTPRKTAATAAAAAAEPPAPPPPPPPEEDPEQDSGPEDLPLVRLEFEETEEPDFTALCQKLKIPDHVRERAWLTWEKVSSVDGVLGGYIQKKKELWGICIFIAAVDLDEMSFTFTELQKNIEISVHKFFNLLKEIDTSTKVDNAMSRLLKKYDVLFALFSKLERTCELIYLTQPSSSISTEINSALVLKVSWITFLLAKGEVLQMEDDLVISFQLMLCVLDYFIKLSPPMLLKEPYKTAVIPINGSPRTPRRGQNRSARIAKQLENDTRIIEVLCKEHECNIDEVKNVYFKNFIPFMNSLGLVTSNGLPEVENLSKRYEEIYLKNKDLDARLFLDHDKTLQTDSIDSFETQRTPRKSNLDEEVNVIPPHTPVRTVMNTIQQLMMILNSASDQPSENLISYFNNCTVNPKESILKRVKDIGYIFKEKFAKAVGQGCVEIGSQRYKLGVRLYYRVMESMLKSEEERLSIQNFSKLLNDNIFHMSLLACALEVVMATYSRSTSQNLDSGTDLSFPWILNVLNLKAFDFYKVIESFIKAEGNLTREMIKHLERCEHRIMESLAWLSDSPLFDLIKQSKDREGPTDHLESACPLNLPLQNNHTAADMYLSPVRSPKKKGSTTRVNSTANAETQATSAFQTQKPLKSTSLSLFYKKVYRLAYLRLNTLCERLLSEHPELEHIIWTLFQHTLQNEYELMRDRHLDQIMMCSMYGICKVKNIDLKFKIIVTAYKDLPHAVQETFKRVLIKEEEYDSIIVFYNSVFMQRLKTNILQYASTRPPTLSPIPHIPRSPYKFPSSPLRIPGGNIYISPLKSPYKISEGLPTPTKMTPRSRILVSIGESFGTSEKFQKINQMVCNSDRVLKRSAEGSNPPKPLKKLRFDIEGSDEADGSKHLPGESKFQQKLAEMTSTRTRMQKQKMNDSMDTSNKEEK
Chain of UniProt P17535 (whole entry, looked up): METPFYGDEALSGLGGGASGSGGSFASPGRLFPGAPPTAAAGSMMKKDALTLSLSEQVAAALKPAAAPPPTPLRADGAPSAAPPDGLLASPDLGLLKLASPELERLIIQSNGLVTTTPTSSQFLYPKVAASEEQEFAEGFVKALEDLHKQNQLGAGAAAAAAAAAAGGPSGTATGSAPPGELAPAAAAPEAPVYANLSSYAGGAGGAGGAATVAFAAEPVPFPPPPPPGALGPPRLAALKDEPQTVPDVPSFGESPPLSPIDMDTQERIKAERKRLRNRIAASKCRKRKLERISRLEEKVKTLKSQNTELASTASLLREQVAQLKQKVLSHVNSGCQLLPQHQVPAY
Chain of UniProt Q10M50 (whole entry, looked up): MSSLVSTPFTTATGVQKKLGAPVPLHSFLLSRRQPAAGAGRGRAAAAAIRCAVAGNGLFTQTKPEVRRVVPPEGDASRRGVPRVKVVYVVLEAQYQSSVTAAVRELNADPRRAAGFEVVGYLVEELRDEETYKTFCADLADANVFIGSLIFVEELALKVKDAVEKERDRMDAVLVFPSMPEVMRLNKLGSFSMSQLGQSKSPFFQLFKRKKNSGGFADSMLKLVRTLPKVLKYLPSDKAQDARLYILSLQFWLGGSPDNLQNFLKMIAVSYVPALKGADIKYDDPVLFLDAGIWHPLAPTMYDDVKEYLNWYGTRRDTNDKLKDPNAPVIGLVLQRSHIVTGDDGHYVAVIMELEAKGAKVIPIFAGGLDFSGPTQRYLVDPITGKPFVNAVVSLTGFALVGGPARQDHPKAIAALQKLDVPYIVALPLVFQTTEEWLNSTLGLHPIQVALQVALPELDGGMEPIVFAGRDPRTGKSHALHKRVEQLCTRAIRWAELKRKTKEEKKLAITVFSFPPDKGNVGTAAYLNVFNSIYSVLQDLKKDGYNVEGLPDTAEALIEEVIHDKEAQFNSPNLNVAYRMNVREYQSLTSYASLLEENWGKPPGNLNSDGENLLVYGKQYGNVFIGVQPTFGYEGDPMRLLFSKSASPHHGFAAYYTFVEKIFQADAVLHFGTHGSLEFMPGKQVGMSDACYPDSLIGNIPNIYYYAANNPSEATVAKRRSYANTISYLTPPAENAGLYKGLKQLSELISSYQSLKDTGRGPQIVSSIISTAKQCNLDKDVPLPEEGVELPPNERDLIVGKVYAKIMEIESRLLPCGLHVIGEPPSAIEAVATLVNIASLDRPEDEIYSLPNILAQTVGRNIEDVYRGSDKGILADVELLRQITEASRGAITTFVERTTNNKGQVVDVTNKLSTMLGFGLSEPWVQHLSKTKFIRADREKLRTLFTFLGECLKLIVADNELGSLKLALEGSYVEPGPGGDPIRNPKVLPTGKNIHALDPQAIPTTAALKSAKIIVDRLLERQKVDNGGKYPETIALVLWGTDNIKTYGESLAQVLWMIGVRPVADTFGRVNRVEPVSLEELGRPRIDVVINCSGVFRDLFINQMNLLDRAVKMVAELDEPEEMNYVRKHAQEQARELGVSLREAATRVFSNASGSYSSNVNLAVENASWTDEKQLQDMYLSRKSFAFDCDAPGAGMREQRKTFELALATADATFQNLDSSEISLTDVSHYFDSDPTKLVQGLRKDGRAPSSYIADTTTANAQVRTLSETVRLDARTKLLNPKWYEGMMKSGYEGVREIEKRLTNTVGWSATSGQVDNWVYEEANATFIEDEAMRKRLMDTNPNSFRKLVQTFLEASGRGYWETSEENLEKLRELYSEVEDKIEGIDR
Chain of UniProt O60656 (whole entry, looked up): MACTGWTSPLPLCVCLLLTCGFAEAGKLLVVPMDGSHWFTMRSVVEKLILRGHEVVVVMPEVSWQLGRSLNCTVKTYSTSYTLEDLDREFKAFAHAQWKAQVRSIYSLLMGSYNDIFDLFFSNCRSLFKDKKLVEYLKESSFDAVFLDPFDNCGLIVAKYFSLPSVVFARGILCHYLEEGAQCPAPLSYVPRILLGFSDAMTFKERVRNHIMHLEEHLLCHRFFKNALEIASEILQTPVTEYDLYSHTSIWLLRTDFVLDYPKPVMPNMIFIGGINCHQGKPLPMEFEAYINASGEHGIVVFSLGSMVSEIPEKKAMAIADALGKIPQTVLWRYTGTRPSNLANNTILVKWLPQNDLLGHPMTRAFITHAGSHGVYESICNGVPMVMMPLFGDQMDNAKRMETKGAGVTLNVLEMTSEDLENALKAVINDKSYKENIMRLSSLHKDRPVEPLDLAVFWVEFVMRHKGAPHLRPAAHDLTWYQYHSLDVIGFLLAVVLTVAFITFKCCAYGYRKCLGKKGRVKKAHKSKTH
Chain of UniProt P32248 (whole entry, looked up): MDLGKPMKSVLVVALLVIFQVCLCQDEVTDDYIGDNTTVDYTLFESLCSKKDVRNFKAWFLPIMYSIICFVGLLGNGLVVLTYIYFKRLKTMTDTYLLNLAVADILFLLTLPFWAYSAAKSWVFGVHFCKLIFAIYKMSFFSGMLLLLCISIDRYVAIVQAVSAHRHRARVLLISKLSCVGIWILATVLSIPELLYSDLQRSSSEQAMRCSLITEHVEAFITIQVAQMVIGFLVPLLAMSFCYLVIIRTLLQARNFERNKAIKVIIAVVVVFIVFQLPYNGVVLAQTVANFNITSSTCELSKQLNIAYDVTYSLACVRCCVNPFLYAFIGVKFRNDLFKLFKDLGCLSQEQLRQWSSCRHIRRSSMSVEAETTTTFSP

KKAVK[pS]PAKAKAW (histone H1.1 residues 178-189 (Homo sapiens); pS183; pS = N[C@@H](COP(=O)(O)O)C(=O)O) — exchange rate constant (PIN1 51-163 (Homo sapiens, UniProt Q13526); EXSY NMR; peptide; 1 mM peptide, 25 °C): 6 s⁻¹
AR (Homo sapiens, UniProt P10275) — increase in AR-JunD complex (JUND (Homo sapiens, UniProt P17535); co-IP; LNCaP, nuclear extract; added: R1881 1 nM; relative to: untreated cells, higher = more complex): 3 fold
B1 — molecule per partner (DLAT/PDHX mature 60-mer core (Homo sapiens); SEC): 50.1 ± 0.7
TIMP2 N-terminal domain S4P/I35V/S68N/V71I/H97R — Ki (MMP1 100-269 (Homo sapiens, UniProt P03956); fluorogenic substrate cleavage, inhibitor, enzyme inhibition assay; apparent): 0.00011 µM
CCND1/CDK6 fusion, linker (Homo sapiens) — Rb phosphorylation (RB1 F897A/L901A/R908A (Homo sapiens, UniProt P06400); in vitro kinase assay; relative to: wild-type Rb, higher = greater difference): 17 fold
RFC1/RFC2/RFC3/RFC4/RFC5 (Saccharomyces cerevisiae) — rate constant of PCNA release (POL30 (Saccharomyces cerevisiae, UniProt P15873); release after ATP hydrolysis; global fit): 1.7 s⁻¹
ITGB1 whole (Gallus gallus, UniProt P07228) — attachment (laminin (Mus musculus, UniProt P19137); neuron attachment; E8 CG neurons; 90 min, 37 °C, no antibody; relative to: poly-D-lysine, higher = more attachment): 87%
B2 (TIF4631 572-853 K590R) — binding (TIF1 E135C/G370C, Alexa488/Alexa546 labels (Saccharomyces cerevisiae, UniProt P10081); conformation of molecule, smFRET): binds
MYSSTDHILNKFLILHYALNPT (peptide) — koff (CD274 extracellular domain (Homo sapiens); BLI; peptide): 0.00146 s⁻¹
FGF2 (Homo sapiens, UniProt P09038) — half-maximal concentration (FGFR3 isoform IIIc (unknown, UniProt Q61851); cell proliferation, MTT; BaF3-FGFR3c; added: heparin): 2.5 nM
B3 (CCL21 mature, 1-111) — EC50 (CCR7 (Homo sapiens, UniProt P32248); cAMP inhibition, agonist, BRET; CHO): 0.0202 µM
cpSRP43 substrate-binding domain (Arabidopsis thaliana) — chaperone activity (CHLH mature (Oryza sativa, UniProt Q10M50); heat-induced aggregation, light scattering; relative to: cpSRP43-FL, higher = weaker chaperone activity): > 20 fold lower
B4 (RAB8A GTP-bound Q67L) — relative binding (Myo5a 1260-1853 (Mus musculus, UniProt Q99104); pull-down; CHO-IR, lysate; relative to: wild-type Rab8A, higher = more binding): 2.5 fold
myo1 fragment (Schizosaccharomyces pombe) — half-maximal concentration (Arp2/3 complex (Schizosaccharomyces pombe); barbed end yield, activator; with and without verprolin): 150 nM
B5 (FGF14) — peak luminescence (CD4/SCN8A/NLuc Nav1.6 C-terminal tail; split-luciferase complementation; HEK293; higher = more interaction): 13200 RLU
ACTC1 R312H — frictional load (heavy meromyosin HMM (Oryctolagus cuniculus); in vitro motility assay; model fit, added: alpha-actinin): 174 pN
B6 (DKK1 183-266) — molecule per partner (LRP6 630-1244 (Homo sapiens, UniProt O75581); SEC, dynamic light scattering): 1
sfGFP-ssrA (Escherichia coli) — KM (ClpA/ClpS (Escherichia coli); SFGFP-ssrA degradation, steady-state kinetics; added: Phe-Val dipeptide 10 µM): 167 µM
GCVRLHESCLGQQVPCCDPAATCYCYGRGDNDLRCYCR (AgRP variant) — IC50 (ITGAV/ITGB3 whole, on cells (Homo sapiens); competition with labeled echistatin, radioligand binding; designed binder, U87MG; 3 h, room temperature, added: 125I-echistatin 0.06 nM): 0.023 µM
{Cy5.5(3)}-TNYLFSPNGPIARAW (peptide; N-terminal Cy5.5; Cy5.5(3) = Cy5.5 fluorescent dye) — koff (EPHB4 16-539 (Homo sapiens, UniProt P54760); SPR; peptide): 0.00528 s⁻¹
ITGA5/ITGB1 (Mus musculus) — cell adhesion (Fn1 (Rattus norvegicus, UniProt P04937); mesangial cell adhesion; mesangial cells; 60 min, high glucose; relative to: normal glucose, higher = more adhesion): 2 fold
WDR48 fragment (Homo sapiens) (sequence not shown) — molecule per partner (USP12/ubiquitin, covalent Ub-PRG warhead (Homo sapiens); SEC-MALS; pH 7.5): 2 UAF1 per USP12
UGT1A9 (Homo sapiens, UniProt O60656) — Vmax/Km (Cc1ccc(C(=O)c2cc(O)c(O)c([N+](=O)[O-])c2)cc1; steady-state kinetics; pH 7.4, 37 °C): 417 µL/min/mg
B7 (NTF3 mature) — dimer stability change (NTRK3 extracellular and transmembrane domains (Homo sapiens); FRET; 380 nM; relative to: without ligand, higher = more stable dimer): -1.49 kcal/mol
TUBG1/TUBGCP2/TUBGCP3/TUBGCP4/TUBGCP5/TUBGCP6 complex (Homo sapiens) — γTuRC-binding activity (CDK5RAP2 I104A/E105A (Homo sapiens, UniProt Q96SN8); co-IP; HEK293T; not purified; relative to: wild-type full-length CDK5RAP2, higher = more binding): 12 fold
RFC1/RFC2/RFC3/RFC4/RFC5 RFC1 284-end (Saccharomyces cerevisiae) — fraction bound (POL30 1-258 cysteine at 43, MDCC label (Saccharomyces cerevisiae, UniProt P15873); fluorescence titration; 400 nM, NaCl 150 mM, no ATP): > 75%

Some of these lines once more:
GCVRLHESCLGQQVPCCDPAATCYCYGRGDNDLRCYCR (AgRP variant) — IC50 (ITGAV/ITGB3 whole, on cells (Homo sapiens); competition with labeled echistatin, radioligand binding; designed binder, U87MG; 3 h, room temperature, added: 125I-echistatin 0.06 nM): 0.023 µM
{Cy5.5(3)}-TNYLFSPNGPIARAW (peptide; N-terminal Cy5.5; Cy5.5(3) = Cy5.5 fluorescent dye) — koff (EPHB4 16-539 (Homo sapiens, UniProt P54760); SPR; peptide): 0.00528 s⁻¹
